Results gathered from unrelated publications.
Chain of UniProt P07948 (whole entry, looked up): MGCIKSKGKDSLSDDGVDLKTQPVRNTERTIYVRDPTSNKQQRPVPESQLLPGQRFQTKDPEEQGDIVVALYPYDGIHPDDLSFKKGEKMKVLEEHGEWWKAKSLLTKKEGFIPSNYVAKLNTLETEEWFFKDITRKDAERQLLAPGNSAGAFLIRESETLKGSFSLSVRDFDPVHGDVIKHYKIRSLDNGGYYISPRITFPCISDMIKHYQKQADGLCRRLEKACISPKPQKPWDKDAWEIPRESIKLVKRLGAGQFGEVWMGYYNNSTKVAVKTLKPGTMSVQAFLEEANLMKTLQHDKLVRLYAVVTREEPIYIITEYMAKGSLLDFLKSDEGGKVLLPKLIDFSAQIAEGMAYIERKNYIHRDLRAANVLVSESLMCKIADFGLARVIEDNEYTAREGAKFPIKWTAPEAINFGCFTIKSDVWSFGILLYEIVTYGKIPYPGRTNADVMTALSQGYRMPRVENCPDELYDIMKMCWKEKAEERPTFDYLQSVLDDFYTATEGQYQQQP
Chain of UniProt O75385 (whole entry, looked up): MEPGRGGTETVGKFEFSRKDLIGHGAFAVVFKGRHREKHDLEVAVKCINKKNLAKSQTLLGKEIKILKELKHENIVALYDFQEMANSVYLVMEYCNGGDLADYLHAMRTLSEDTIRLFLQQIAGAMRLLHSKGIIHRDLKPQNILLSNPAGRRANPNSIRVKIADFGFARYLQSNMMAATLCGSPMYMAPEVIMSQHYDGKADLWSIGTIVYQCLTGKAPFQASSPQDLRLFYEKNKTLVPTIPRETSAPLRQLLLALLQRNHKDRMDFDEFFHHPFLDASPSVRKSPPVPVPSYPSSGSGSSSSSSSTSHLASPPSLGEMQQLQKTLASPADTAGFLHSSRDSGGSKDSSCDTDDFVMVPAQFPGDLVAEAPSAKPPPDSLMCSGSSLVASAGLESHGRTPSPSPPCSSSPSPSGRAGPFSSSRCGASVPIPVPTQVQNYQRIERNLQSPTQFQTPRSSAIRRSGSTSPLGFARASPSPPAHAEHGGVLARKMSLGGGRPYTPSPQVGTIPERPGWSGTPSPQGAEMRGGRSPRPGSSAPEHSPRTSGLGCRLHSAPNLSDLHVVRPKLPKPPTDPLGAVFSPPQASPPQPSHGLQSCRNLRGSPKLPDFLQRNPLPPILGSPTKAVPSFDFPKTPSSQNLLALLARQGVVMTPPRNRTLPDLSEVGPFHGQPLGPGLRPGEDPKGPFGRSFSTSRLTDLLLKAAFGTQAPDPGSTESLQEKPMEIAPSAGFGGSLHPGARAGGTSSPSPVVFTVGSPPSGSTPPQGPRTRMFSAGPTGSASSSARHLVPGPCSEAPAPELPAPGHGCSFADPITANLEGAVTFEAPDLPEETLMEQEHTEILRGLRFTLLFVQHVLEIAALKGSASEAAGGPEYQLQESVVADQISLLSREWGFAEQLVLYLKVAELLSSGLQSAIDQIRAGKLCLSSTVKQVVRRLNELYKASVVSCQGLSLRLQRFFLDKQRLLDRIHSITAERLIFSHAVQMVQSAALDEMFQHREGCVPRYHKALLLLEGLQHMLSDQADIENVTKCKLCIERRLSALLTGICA

`CCC(=CCc1c(O)cc2c(c1O)C(=O)C[C@@H](c1ccc(O)cc1)O2)CC` has an inhibition of 55.7% (HeLa; cell growth or viability, MTT; 25 µM, 48 h).
For `COc1ccc(-c2cc(-c3ccc4oc(=O)cc(C)c4c3O)nc(N)n2)cc1`, the inhibition was 11% (KB; cell growth or viability, MTT; 32 µg/mL, 72 h).
The inhibition of `C[C@@H]1CC[C@@H]([C@](C)(O)Cn2ccnc2)[C@H](OCc2ccccc2)C1` is reported as 59.7% (HeLa; cell growth or viability, MTT; 30 µM, 72 h).
`OCc1ccc(N2CCc3cccc(F)c3C2)cc1Cl` has an inhibition of 87% (RBE; cell growth or viability, ATP luminescence; 46 µM, 72 h).
The inhibition of `CC1(C)C[C@H]2[C@H]1CC[C@]1(C)CCC[C@@]2(n2cc(-c3ccc(F)cc3)nn2)C1` is reported as 36.2% (HT-29; cell growth or viability, CCK-8; 50 µM).
`C[C@@H](Oc1cc(-c2cnn(C3CCNCC3)c2)cnc1N)c1c(Cl)ccc(F)c1Cl` has an inhibition of 12.7% (NCI-H3122; cell growth or viability, MTT; 0.0016 µg/mL, 72 h).
`Cc1cc(=O)oc2ccc(-c3cc(-c4ccccc4)nc(N)n3)c(O)c12` gave an inhibition of 47% (KB; cell growth or viability, MTT; 128 µg/mL, 72 h).
`CCN(Cc1c(Cl)cccc1Cl)c1ccc(CO)c(Cl)c1` has an inhibition of 59% (RBE; cell growth or viability, ATP luminescence; 46 µM, 72 h).
For `C[C@@H]1CC[C@@H]([C@@](O)(CNCc2ccccc2)COCc2ccccc2)[C@H](OCc2ccccc2)C1`, the inhibition was 99% (A2780; cell growth or viability, MTT; 10 µM, 72 h).
`Cc1ccc(-c2cc(-c3ccc4oc(=O)cc(C)c4c3O)nc(N)n2)cc1` gave an inhibition of 25% (KB; cell growth or viability, MTT; 128 µg/mL, 72 h).
`C[C@@H]1CC[C@@H]([C@@](O)(CNCc2cccc3ccccc23)COCc2ccccc2)[C@H](OCc2ccccc2)C1` has an inhibition of 99% (HeLa; cell growth or viability, MTT; 30 µM, 72 h).
For `OCc1cccc(-c2nn(Cc3ccccc3)c3ccccc23)c1`, the inhibition was 28% (RBE; cell growth or viability, ATP luminescence; 46 µM, 72 h).
`Cc1cc(Nc2ncc(Cl)c(Nc3ccccc3S(=O)(=O)C(C)C)n2)c(OC(C)C)cc1C1CCNCC1` has an inhibition of -4.3% (KARPAS-299; cell growth or viability, MTT; 0.00229 µg/mL, 72 h).
`OCc1ccc(-c2nn(Cc3ccccc3)c3cccnc23)o1` gave an inhibition of 65% (RBE; cell growth or viability, ATP luminescence; 46 µM, 72 h).
With `COc1cc(-c2cncc3c2CN(C)Cc2cc(N4CCNCC4)ccc2-3)cc(OC)c1OC` the remaining activity was 110% (Serine/threonine-protein kinase ULK1 (ULK1, Homo sapiens, UniProt O75385); enzyme activity, inhibitor; 1 µM).
`CCC(=CCc1c(O)cc2c(c1O)C(=O)C[C@@H](c1ccccc1O)O2)CC` gave an inhibition of -3.59% (HeLa; cell growth or viability, MTT; 1.875 µM, 48 h).
With `COc1cccc(CNC[C@@](C)(O)[C@@H]2CC[C@@H](C)C[C@H]2OCc2ccccc2)c1` the inhibition was 95.3% (A2780; cell growth or viability, MTT; 30 µM, 72 h).
`Cc1cc(=O)oc2ccc(-c3cc(-c4cccs4)nc(N)n3)c(O)c12` has an inhibition of 0% (KB; cell growth or viability, MTT; 32 µg/mL, 72 h).
For `OCc1ccc(-c2ccc(-c3ccc(CO)s3)o2)s1`, the inhibition was 60.3% (RBE; cell growth or viability, ATP luminescence; 46 µM, 72 h).
`COc1ccccc1CNC[C@@](C)(O)[C@@H]1CC[C@@H](C)C[C@H]1OCc1ccccc1` has an inhibition of 82.4% (HeLa; cell growth or viability, MTT; 30 µM, 72 h).
With `CC(O)c1ccc(-c2nn(Cc3ccccc3)c3ccccc23)o1` (centres unmarked) the inhibition was 64% (RBE; cell growth or viability, ATP luminescence; 46 µM, 72 h).
The inhibition of `C[C@@H]1CC[C@@H]([C@](C)(O)CNCc2ccccc2F)[C@H](OCc2ccccc2)C1` is reported as 63.7% (HeLa; cell growth or viability, MTT; 10 µM, 72 h).
The inhibition of `OCc1ccc(-c2nn(CC3CCCCC3)c3ccccc23)o1` is reported as 82% (RBE; cell growth or viability, ATP luminescence; 46 µM, 72 h).
The inhibition of `Cc1cc(=O)oc2ccc(-c3cc(-c4cccc([N+](=O)[O-])c4)nc(N)n3)c(O)c12` is reported as 95% (KB; cell growth or viability, MTT; 128 µg/mL, 72 h).
With `C[C@@H]1CC[C@@H]([C@](O)(CNCc2ccccc2)COCc2ccc(F)cc2)[C@H](OCc2ccc(F)cc2)C1` the inhibition was 97.3% (A2780; cell growth or viability, MTT; 30 µM, 72 h).
The inhibition of `CC1(C)C[C@H]2[C@H]1CC[C@]1(C)CCC[C@@]2(NS(C)(=O)=O)C1` is reported as 79.8% (HT-29; cell growth or viability, CCK-8; 50 µM).
`Cc1cc(=O)oc2ccc(-c3cc(-c4cccc(Cl)c4)nc(N)n3)c(O)c12` has an inhibition of 26% (KB; cell growth or viability, MTT; 128 µg/mL, 72 h).
`COc1ccc(-c2cn([C@@]34CCC[C@@](C)(CC[C@@H]5[C@@H]3CC5(C)C)C4)nn2)cc1` has an inhibition of less than 50% (HT-29; cell growth or viability, CCK-8; 10 µM).
The inhibition of `O=S(=O)(c1ccccc1)n1nc(-c2ccc(CO)o2)c2ccccc21` is reported as 6% (RBE; cell growth or viability, ATP luminescence; 46 µM, 72 h).
`CNc1ncc2c(/C=C/C(=O)N3CCC(OC)CC3)nn(Cc3cccc(C(F)(F)F)c3)c2n1` gave a remaining activity of 81% (Tyrosine-protein kinase Lyn (LYN, Homo sapiens, UniProt P07948); enzyme activity, inhibitor, radiometric; 1 µM).
The inhibition of `CN(C)C(=O)c1cn([C@@]23CCC[C@@](C)(CC[C@@H]4[C@@H]2CC4(C)C)C3)nn1` is reported as 45.8% (HT-29; cell growth or viability, CCK-8; 50 µM).
For `Cc1cc(=O)oc2ccc(-c3cc(-c4ccc(Cl)cc4)nc(N)n3)c(O)c12`, the inhibition was 37% (KB; cell growth or viability, MTT; 2 µg/mL, 72 h).

Excerpt of the above:
`Cc1cc(Nc2ncc(Cl)c(Nc3ccccc3S(=O)(=O)C(C)C)n2)c(OC(C)C)cc1C1CCNCC1` has an inhibition of -4.3% (KARPAS-299; cell growth or viability, MTT; 0.00229 µg/mL, 72 h).
For `Cc1cc(=O)oc2ccc(-c3cc(-c4ccc(Cl)cc4)nc(N)n3)c(O)c12`, the inhibition was 37% (KB; cell growth or viability, MTT; 2 µg/mL, 72 h).
With `C[C@@H]1CC[C@@H]([C@](O)(CNCc2ccccc2)COCc2ccc(F)cc2)[C@H](OCc2ccc(F)cc2)C1` the inhibition was 97.3% (A2780; cell growth or viability, MTT; 30 µM, 72 h).
`CCC(=CCc1c(O)cc2c(c1O)C(=O)C[C@@H](c1ccc(O)cc1)O2)CC` has an inhibition of 55.7% (HeLa; cell growth or viability, MTT; 25 µM, 48 h).
